Results of several laboratories.
Every numbered part comes from another study and shows a few of its results, in no order. Several values in a cell are separate wells, animals, samples, runs or records.
Sequence of UniProt P15056 (whole entry, unmodified, looked up): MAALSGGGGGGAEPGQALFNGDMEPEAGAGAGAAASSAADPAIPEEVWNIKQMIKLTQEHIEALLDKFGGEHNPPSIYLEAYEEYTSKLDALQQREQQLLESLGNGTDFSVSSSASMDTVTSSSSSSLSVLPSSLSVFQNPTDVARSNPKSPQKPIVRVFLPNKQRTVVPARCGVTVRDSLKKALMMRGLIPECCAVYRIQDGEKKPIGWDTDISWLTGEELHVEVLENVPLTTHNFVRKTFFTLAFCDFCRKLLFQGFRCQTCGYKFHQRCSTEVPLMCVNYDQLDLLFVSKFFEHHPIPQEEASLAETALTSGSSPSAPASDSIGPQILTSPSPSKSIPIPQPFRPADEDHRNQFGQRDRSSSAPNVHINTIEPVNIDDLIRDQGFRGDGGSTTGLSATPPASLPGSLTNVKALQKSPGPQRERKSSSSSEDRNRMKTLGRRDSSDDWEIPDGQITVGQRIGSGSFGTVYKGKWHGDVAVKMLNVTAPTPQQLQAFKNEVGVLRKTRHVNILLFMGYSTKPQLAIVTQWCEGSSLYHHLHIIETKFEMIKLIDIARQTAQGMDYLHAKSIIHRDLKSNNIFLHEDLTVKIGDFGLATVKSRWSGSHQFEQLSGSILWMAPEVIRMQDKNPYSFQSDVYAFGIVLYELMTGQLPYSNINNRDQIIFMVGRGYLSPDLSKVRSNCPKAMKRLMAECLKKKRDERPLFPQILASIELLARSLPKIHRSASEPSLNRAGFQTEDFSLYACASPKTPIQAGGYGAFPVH
Sequence of UniProt P00519 (whole entry, unmodified, looked up): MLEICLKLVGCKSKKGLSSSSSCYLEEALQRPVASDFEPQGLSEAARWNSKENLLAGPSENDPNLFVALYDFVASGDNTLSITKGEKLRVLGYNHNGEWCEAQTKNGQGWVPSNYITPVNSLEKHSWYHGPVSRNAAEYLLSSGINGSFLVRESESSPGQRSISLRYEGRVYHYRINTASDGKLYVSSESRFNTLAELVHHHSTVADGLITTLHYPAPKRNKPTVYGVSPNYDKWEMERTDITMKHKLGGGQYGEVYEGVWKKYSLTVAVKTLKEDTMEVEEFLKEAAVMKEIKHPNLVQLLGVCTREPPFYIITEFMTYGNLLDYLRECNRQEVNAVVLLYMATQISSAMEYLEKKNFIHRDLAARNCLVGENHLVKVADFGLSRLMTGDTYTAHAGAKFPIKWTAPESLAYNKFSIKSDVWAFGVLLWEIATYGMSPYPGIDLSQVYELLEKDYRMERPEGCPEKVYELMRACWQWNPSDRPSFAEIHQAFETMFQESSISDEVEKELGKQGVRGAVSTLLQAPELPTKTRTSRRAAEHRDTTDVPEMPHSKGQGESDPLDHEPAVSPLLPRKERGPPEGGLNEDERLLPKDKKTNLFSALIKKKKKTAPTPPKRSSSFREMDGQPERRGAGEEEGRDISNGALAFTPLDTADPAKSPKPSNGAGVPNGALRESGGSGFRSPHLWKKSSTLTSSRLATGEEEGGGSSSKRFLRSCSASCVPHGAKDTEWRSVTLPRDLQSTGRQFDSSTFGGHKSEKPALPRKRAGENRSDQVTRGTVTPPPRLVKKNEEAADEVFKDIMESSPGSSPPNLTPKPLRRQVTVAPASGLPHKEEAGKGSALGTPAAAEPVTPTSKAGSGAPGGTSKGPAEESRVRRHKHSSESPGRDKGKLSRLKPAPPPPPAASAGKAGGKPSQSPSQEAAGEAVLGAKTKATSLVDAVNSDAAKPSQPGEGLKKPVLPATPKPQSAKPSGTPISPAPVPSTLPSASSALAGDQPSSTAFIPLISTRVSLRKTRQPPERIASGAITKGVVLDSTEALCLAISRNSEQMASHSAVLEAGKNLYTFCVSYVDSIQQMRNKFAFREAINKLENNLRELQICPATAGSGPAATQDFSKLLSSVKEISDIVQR
Sequence of UniProt P22612 (whole entry, looked up): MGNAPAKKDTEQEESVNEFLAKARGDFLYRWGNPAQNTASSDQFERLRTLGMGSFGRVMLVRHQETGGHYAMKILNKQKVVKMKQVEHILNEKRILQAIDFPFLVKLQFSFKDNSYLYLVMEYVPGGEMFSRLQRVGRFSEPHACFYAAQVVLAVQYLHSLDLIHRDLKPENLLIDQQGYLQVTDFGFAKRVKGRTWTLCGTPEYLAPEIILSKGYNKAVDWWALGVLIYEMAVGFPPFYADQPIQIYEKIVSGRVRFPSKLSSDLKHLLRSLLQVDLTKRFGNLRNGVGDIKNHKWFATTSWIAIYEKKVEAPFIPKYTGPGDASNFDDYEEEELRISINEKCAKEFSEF

Set 1 — read-out: enzyme activity; action: inhibitor; tested at: 77 µM; relative to: untreated
Target: DNA polymerase theta, ATPase domain (POLQ, Homo sapiens, UniProt O75417)
Sequence of UniProt O75417 (whole entry, unmodified, looked up): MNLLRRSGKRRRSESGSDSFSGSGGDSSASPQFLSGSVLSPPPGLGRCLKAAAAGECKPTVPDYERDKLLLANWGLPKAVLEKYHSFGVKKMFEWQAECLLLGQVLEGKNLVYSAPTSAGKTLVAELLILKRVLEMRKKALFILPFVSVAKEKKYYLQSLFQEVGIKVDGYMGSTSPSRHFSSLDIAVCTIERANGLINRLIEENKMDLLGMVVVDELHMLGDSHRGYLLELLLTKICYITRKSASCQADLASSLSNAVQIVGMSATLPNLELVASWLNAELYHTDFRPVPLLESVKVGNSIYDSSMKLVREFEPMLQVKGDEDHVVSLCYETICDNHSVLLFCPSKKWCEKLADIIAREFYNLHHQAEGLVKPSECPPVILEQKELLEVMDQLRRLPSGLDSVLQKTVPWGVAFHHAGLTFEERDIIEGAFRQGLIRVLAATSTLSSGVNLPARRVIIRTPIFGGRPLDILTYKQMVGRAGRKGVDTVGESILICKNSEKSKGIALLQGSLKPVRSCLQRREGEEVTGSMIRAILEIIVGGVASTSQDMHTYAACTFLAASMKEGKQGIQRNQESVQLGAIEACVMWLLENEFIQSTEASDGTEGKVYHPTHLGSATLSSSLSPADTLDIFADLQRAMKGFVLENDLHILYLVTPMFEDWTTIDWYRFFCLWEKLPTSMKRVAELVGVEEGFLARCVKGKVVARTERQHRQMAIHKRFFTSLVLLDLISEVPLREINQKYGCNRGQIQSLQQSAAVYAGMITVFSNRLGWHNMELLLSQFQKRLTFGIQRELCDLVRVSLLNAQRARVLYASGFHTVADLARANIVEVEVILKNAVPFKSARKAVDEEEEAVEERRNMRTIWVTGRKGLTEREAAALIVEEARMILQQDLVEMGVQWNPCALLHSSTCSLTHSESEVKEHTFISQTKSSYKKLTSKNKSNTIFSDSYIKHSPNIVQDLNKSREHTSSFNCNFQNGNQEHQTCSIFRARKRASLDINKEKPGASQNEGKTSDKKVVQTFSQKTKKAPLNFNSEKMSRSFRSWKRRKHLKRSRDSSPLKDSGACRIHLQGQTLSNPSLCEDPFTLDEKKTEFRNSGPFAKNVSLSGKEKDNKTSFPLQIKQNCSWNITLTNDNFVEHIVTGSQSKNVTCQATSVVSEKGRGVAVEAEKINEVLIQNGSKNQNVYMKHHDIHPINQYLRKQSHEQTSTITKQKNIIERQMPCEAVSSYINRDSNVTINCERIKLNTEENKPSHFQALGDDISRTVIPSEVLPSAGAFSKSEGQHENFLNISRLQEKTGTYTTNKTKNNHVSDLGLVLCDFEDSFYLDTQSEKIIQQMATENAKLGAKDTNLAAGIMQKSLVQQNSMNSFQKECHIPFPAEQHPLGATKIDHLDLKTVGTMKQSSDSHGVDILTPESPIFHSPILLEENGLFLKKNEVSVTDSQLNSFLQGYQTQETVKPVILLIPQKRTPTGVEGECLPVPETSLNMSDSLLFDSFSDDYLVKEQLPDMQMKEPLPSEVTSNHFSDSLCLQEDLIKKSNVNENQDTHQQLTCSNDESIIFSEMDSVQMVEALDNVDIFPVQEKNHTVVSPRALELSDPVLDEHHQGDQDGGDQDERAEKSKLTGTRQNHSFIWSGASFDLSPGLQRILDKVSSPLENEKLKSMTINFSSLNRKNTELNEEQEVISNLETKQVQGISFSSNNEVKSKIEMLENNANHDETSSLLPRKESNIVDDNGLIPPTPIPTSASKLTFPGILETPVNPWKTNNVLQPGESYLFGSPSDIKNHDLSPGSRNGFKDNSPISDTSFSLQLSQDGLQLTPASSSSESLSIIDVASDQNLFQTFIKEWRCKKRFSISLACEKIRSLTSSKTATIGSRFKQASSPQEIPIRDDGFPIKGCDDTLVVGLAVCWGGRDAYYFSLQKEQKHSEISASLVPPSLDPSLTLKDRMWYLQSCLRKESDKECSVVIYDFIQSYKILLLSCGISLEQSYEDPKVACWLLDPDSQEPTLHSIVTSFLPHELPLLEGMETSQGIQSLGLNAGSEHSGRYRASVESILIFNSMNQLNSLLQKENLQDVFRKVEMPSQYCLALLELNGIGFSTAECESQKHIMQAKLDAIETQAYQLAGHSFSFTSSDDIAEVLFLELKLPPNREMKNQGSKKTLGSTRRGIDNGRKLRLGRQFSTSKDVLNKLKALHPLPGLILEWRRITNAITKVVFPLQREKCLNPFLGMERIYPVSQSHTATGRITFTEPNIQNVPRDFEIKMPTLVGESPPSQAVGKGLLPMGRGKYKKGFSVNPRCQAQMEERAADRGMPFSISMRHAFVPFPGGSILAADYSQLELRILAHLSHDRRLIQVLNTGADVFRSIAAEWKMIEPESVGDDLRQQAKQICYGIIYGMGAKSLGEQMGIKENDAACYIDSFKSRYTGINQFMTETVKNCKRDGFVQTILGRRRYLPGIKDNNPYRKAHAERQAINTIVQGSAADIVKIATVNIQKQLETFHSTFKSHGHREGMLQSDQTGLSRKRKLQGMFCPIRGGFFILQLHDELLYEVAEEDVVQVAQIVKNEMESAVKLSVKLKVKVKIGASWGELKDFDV
O=c1[nH]c(=O)n([C@H]2C[C@H](O)[C@@H](CO)O2)cc1I gave a remaining activity of 109%.
For Cc1cc(CN2CCN(c3c(Br)cnc4nc(-c5ccc(N6CCN(C)CC6)cc5)[nH]c34)CC2)no1, the remaining activity was 104%.
For CC(C)(CO)C(O)C(=O)NCCCO (stereo not shown), the remaining activity was 91.7%.
C[C@@H]1C[C@H]2[C@@H]3C[C@H](F)C4=CC(=O)C=C[C@]4(C)[C@@]3(Cl)[C@@H](O)C[C@]2(C)[C@H]1C(=O)COC(=O)C(C)(C)C has a remaining activity of 85%.
COc1cc([S+](C)[O-])ccc1-c1nc2cccnc2[nH]1 (stereo not shown) has a remaining activity of 91.7%.
CN(CC(=O)N(Cc1ccc(C2CCCCC2)cc1)c1ccc(C(=O)O)cc1)S(=O)(=O)c1c(F)c(F)c(F)c(F)c1F has a remaining activity of 73.6%.
For COc1ccc2c(c1)C(=O)N(CCc1ccc(S(=O)(=O)NC(=O)NC3CCCCC3)cc1)C(=O)C2(C)C, the remaining activity was 95.6%.
The remaining activity of OCc1ccc(O[C@@H]2O[C@H](CO)[C@@H](O)[C@H](O)[C@H]2O)cc1 is reported as 99.8%.
For COc1ccc(-c2cnc3c(-c4ccsc4)cnn3c2)cc1, the remaining activity was 89.5%.
For N#Cc1c(O)c2c(-c3ccc(-c4ccccc4O)cc3)csc2[nH]c1=O, the remaining activity was 64.5%.
The remaining activity of NCCCCCC(=O)O is reported as 91.7% and 97%.
CNC(=O)[C@H]1O[C@@H](n2cnc3c(NCc4ccc(N)cc4)ncnc32)[C@H](O)[C@@H]1O has a remaining activity of 97.9%.
With CC(=O)N[C@@H](CC(C)C)C(=O)O the remaining activity was 112%.

Set 2 — Structure (SMILES): Nc1ccc2ncnc(NCCc3ccc(Oc4ccccc4)cc3)c2c1; read-out: enzyme activity; action: inhibitor; tested at: 0.5 µM; relative to: control
Ribosomal protein S6 kinase alpha-2 (RPS6KA2, Homo sapiens, UniProt Q15349) — remaining activity: 100%.
For Tyrosine-protein kinase ABL2 (ABL2, Homo sapiens, UniProt P42684): remaining activity read 102%.
It gave 97.2% for remaining activity (Macrophage-stimulating protein receptor (MST1R, Homo sapiens, UniProt Q04912)).
The remaining activity was 96.9% (Tyrosine-protein kinase JAK3 (JAK3, Homo sapiens, UniProt P52333)).
The remaining activity was 98.3% (Tyrosine-protein kinase Lck (LCK, Homo sapiens, UniProt P06239)).
For Fibroblast growth factor receptor 1 (FGFR1, Homo sapiens, UniProt P11362): remaining activity read 86.3%.
Mitogen-activated protein kinase kinase kinase 5 (MAP3K5, Homo sapiens, UniProt Q99683) — remaining activity: 105%.
It gave 96.8% for remaining activity (Casein kinase I isoform gamma-3 (CSNK1G3, Homo sapiens, UniProt Q9Y6M4)).
It gave 108% for remaining activity (MAP kinase-activated protein kinase 2 (MAPKAPK2, Homo sapiens, UniProt P49137)).
The remaining activity was 102% (Ephrin type-A receptor 3 (EPHA3, Homo sapiens, UniProt P29320)).
It gave 102% for remaining activity (Glycogen synthase kinase-3 beta (GSK3B, Homo sapiens, UniProt P49841)).
The remaining activity was 109% (Mitogen-activated protein kinase kinase kinase 14 (MAP3K14, Homo sapiens, UniProt Q99558)).
It gave 101% for remaining activity (Fibroblast growth factor receptor 3 (FGFR3, Homo sapiens, UniProt P22607)).
For Serine/threonine-protein kinase ULK2 (ULK2, Homo sapiens, UniProt Q8IYT8): remaining activity read 103%.

Set 3 — read-out: cell-free assay; technique: competition with immobilised ligand; tested at: 1 µM
SMILES: CN(C)CC#Cc1ccc(OCCCc2sc(N3CCc4cccc(C(=O)Nc5nc6ccccc6s5)c4C3)nc2C(=O)O)c(F)c1
Myosin light chain kinase family member 4 (MYLK4, Homo sapiens, UniProt Q86YV6) — remaining binding: 99%.
It gave 100% for remaining binding (Casein kinase II subunit alpha' (CSNK2A2, Homo sapiens, UniProt P19784)).
Tyrosine-protein kinase ABL1, non-phosphorylated (ABL1, Homo sapiens, UniProt P00519, F317L) — remaining binding: 100%.
The remaining binding was 97% (Ribosomal protein S6 kinase alpha-6, C-terminal kinase domain (RPS6KA6, Homo sapiens, UniProt Q9UK32)).
It gave 87% for remaining binding (Serine/threonine-protein kinase Nek5 (NEK5, Homo sapiens, UniProt Q6P3R8)).
It gave 99% for remaining binding (Ephrin type-A receptor 7 (EPHA7, Homo sapiens, UniProt Q15375)).
Casein kinase I isoform alpha-like (CSNK1A1L, Homo sapiens, UniProt Q8N752) — remaining binding: 100%.
It gave 100% for remaining binding (Epidermal growth factor receptor (EGFR, Homo sapiens, UniProt P00533, T790M)).
It gave 100% for remaining binding (Ribosomal protein S6 kinase alpha-4, N-terminal kinase domain (RPS6KA4, Homo sapiens, UniProt O75676)).
It gave 82% for remaining binding (Mitogen-activated protein kinase kinase kinase 6 (MAP3K6, Homo sapiens, UniProt O95382)).
It gave 84% for remaining binding (Serine/threonine-protein kinase/endoribonuclease IRE1 (ERN1, Homo sapiens, UniProt O75460)).
The remaining binding was 84% (Bone morphogenetic protein receptor type-1B (BMPR1B, Homo sapiens, UniProt O00238)).
For Dual specificity protein kinase TTK (TTK, Homo sapiens, UniProt P33981): remaining binding read 92%.
For Serine/threonine-protein kinase STK11 (STK11, Homo sapiens, UniProt Q15831): remaining binding read 100%.
The remaining binding was 100% (Activin receptor type-1B (ACVR1B, Homo sapiens, UniProt P36896)).

Set 4 — action: inhibitor; tested at: 5 µM
SMILES: O=C1NC(=O)C(c2cn(-c3ccccc3)nc2-c2ccc(F)cc2)N1 (stereo not shown)
The “log2 fold change” was -0.106 (Casein kinase I isoform delta (CSNK1D, Homo sapiens, UniProt P48730); kinase–CDC37 interaction; kinome plate 2@F04; relative to: vehicle).
It gave -0.208 for “log2 fold change” (Serine/threonine-protein kinase B-raf (BRAF, Homo sapiens, UniProt P15056, G469A); cell-based kinome profiling; human cells; relative to: vehicle control).
The “log2 fold change” was -0.142 (Serine/threonine-protein kinase B-raf (BRAF, Homo sapiens, UniProt P15056, E586K); cell-based kinome profiling; human cells; relative to: vehicle control).
For Tyrosine-protein kinase STYK1 (STYK1, Homo sapiens, UniProt Q6J9G0); kinase-CDC37 interaction; human cells; relative to: vehicle: “log2 fold change” read -0.351.
Bone morphogenetic protein receptor type-2 (BMPR2, Homo sapiens, UniProt Q13873, C483R); cell-based kinome profiling; human cells; relative to: vehicle control — “log2 fold change”: -0.08.
It gave -0.512 for “log2 fold change” (Insulin-like growth factor 1 receptor (IGF1R, Homo sapiens, UniProt P08069); cell-based kinome screen; human cells; relative to: vehicle).
Dual specificity protein kinase CLK3 (CLK3, Homo sapiens, UniProt P49761); human cells; relative to: vehicle — “log2 fold change”: -0.707.
It gave -0.274 for “log2 fold change” (kinase–CDC37 interaction; kinase–CDC37 binding; human cells; oncogenic CCDC6-RET fusion; relative to: vehicle).
The “log2 fold change” was -0.172 log2 (Mitogen-activated protein kinase 4 (MAPK4, Homo sapiens, UniProt P31152); cell-based kinome screen; human cells; relative to: untreated control).
For cAMP-dependent protein kinase catalytic subunit gamma (PRKACG, Homo sapiens, UniProt P22612); kinase–CDC37 interaction; kinome plate 3@C04; relative to: vehicle: “log2 fold change” read -0.42.

Excerpt of the above (set 3):
It gave 100% for remaining binding (Casein kinase II subunit alpha' (CSNK2A2, Homo sapiens, UniProt P19784)).
Tyrosine-protein kinase ABL1, non-phosphorylated (ABL1, Homo sapiens, UniProt P00519, F317L) — remaining binding: 100%.
The remaining binding was 97% (Ribosomal protein S6 kinase alpha-6, C-terminal kinase domain (RPS6KA6, Homo sapiens, UniProt Q9UK32)).
It gave 87% for remaining binding (Serine/threonine-protein kinase Nek5 (NEK5, Homo sapiens, UniProt Q6P3R8)).
It gave 99% for remaining binding (Ephrin type-A receptor 7 (EPHA7, Homo sapiens, UniProt Q15375)).
Casein kinase I isoform alpha-like (CSNK1A1L, Homo sapiens, UniProt Q8N752) — remaining binding: 100%.
It gave 100% for remaining binding (Epidermal growth factor receptor (EGFR, Homo sapiens, UniProt P00533, T790M)).
It gave 100% for remaining binding (Ribosomal protein S6 kinase alpha-4, N-terminal kinase domain (RPS6KA4, Homo sapiens, UniProt O75676)).
